Experimental data pooled from the literature.
Every numbered part comes from another study and shows a few of its results, in no order. Positions count from the first letter of the parent shown.
Sequence of UniProt P80192 (whole entry, looked up): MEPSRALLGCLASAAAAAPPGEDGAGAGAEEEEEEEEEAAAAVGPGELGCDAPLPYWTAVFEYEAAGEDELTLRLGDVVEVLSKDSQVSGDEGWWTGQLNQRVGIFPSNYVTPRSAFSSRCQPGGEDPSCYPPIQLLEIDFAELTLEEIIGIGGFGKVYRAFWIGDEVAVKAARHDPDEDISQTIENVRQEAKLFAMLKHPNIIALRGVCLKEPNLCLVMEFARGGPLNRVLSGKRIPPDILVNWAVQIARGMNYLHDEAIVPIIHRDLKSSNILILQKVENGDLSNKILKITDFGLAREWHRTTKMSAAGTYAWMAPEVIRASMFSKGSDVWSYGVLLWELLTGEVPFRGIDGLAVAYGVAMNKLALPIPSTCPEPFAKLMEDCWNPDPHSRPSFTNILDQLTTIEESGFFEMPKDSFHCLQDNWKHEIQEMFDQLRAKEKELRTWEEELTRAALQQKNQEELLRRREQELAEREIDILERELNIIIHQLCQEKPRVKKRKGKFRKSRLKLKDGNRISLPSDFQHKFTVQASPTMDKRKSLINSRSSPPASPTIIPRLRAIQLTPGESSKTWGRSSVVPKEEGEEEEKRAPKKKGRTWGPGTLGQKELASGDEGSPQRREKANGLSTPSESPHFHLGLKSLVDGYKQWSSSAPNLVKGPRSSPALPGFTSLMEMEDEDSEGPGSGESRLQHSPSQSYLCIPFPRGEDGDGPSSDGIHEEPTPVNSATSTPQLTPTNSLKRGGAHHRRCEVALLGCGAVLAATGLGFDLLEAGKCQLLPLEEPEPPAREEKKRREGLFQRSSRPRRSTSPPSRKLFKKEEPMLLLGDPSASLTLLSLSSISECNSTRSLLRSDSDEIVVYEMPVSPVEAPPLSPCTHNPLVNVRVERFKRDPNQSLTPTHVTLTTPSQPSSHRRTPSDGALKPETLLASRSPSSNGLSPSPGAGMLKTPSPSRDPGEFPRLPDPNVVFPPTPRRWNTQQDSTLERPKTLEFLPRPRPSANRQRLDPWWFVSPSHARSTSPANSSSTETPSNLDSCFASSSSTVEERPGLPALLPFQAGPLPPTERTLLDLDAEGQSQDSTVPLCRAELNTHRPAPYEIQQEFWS
Sequence of UniProt Q7L7X3 (whole entry, looked up): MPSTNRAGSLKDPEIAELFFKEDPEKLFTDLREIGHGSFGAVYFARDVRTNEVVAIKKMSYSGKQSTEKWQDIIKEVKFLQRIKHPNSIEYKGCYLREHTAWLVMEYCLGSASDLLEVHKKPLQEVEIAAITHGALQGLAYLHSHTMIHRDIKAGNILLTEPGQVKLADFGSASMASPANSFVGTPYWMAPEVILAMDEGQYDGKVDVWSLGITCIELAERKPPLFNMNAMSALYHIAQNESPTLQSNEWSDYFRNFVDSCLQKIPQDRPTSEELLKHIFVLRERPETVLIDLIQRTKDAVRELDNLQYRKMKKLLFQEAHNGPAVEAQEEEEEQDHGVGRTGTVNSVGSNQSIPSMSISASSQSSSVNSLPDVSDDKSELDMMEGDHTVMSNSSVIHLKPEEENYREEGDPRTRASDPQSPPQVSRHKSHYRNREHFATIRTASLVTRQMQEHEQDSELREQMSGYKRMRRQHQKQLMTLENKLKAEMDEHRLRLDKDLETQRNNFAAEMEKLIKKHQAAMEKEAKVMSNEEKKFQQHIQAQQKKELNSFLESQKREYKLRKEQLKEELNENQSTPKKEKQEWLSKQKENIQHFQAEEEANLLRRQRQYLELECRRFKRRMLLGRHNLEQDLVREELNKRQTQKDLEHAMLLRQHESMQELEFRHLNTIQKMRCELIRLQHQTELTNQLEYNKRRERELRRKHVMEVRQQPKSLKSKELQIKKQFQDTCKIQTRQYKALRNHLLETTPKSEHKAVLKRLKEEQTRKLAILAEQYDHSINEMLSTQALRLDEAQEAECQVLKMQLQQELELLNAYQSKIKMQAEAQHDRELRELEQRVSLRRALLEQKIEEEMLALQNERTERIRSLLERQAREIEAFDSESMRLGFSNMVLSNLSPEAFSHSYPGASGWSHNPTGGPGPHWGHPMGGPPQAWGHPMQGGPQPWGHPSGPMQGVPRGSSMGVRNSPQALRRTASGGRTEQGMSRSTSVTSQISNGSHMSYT

Series 1 — target: vanadate, free oxyanion; method: microfluidic competitive inhibition; sample: in vitro, cell-free expressed; tested at: not given; reading: lower = stronger binding
Setting: derived from inhibition constants, unchanged parent 676 nM
Starting sequence: PafA, mature enzyme, eGFP fusion (Elizabethkingia meningoseptica, UniProt Q9KJX5); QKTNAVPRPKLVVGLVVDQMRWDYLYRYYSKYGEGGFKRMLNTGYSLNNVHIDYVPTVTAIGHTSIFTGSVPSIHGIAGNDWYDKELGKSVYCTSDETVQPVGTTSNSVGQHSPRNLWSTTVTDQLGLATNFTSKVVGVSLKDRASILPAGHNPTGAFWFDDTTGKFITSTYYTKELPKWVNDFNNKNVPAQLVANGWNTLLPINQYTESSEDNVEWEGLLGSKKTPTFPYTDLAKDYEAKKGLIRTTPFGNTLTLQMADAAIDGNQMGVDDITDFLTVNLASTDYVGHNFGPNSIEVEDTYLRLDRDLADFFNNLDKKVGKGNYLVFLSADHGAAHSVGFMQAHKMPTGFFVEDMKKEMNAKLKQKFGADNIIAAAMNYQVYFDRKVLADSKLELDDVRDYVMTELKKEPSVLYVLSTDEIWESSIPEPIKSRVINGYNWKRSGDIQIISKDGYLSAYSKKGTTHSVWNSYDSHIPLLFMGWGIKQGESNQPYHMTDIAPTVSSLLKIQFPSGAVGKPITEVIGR
`E421G`: “oxyanion analog dissociation constant” 615 nM.
`L201G` — result for “oxyanion analog dissociation constant”: 526 nM.
Under “oxyanion analog dissociation constant”, `Q366V` is recorded as 725 nM.
For `G488V`, “oxyanion analog dissociation constant” read 778 nM.
`Y325V` — result for “oxyanion analog dissociation constant”: 820 nM.
`V181A` — result for “oxyanion analog dissociation constant”: 620 nM.
For `Y494G`, “oxyanion analog dissociation constant” read 781 nM.
For `D317V`, “oxyanion analog dissociation constant” read 2.76 µM.

Series 2 — observed: binding; method: phage display NGS; form: peptide; baseline: input library
Target: UDP-N-acetylglucosamine--peptide N-acetylglucosaminyltransferase 110 kDa subunit (OGT, Homo sapiens, UniProt O15294)
Sequence of UniProt O15294 (whole entry, looked up): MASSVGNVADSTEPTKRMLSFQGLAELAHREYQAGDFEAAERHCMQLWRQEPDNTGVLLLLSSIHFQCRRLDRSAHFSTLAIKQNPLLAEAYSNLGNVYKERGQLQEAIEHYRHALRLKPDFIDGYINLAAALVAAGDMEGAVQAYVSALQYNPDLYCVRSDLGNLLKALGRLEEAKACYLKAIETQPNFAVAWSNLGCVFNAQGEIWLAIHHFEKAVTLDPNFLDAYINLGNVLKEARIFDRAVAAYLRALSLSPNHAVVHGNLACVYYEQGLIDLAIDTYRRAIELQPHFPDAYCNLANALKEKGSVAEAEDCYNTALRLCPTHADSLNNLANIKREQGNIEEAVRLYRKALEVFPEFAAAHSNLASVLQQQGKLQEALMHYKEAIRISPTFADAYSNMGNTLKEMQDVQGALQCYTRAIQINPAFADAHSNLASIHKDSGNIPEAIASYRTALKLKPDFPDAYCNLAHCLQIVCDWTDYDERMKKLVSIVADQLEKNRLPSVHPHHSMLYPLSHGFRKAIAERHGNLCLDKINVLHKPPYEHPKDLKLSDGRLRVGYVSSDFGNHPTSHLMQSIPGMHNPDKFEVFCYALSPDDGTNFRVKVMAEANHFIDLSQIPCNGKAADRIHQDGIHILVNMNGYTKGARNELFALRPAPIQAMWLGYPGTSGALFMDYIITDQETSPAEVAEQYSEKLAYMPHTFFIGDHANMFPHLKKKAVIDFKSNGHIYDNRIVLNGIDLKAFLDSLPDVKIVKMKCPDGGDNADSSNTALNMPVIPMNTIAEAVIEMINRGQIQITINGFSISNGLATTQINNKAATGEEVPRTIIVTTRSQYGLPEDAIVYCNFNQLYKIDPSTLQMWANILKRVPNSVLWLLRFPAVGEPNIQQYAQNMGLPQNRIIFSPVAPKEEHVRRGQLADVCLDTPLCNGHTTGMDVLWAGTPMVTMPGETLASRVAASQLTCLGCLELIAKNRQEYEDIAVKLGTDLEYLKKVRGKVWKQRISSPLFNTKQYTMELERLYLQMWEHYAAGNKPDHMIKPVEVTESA
For `HFISPHPHRVENRMH`, “minimum log2 enrichment ratio” read 1.7.
`HSWYGPTHHSVHDTT`: “minimum log2 enrichment ratio” 2.4.
Under “minimum log2 enrichment ratio”, `HLSAMHPELHYHGNH` is recorded as 3.
`HDLHSKHGNTQPHDH`: “minimum log2 enrichment ratio” 1.63.
Under “minimum log2 enrichment ratio”, `YAHTHMYNHPAIYTH` is recorded as 1.77.
`QWQHQTRHVHIPHNH` — result for “minimum log2 enrichment ratio”: 2.76.
For `HTYYQHQHGQGDRYI`, “minimum log2 enrichment ratio” read 1.67.
`HQMHAHQLHRPSTKF` — result for “minimum log2 enrichment ratio”: 3.79.

Series 3 — observed: binding; method: radioligand binding; tested at: 10 µM
Target: Sodium-dependent noradrenaline transporter (SLC6A2, Homo sapiens, UniProt P23975)
Sequence of UniProt P23975 (whole entry, looked up): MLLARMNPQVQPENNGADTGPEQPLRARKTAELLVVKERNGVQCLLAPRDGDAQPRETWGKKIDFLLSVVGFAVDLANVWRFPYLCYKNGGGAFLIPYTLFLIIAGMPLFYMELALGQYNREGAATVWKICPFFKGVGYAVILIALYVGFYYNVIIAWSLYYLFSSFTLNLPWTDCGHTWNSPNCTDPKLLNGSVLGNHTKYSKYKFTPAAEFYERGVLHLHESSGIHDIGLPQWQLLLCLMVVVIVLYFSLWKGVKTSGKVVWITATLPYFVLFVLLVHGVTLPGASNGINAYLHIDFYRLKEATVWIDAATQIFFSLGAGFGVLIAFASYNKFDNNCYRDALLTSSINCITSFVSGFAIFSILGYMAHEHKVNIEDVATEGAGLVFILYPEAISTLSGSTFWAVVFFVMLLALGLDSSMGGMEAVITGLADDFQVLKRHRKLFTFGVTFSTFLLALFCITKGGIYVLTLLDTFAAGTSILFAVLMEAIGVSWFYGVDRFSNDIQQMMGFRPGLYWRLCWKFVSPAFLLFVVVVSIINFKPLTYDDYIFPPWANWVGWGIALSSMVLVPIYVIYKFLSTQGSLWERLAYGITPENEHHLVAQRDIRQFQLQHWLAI
With `CCOC(=O)c1cc2cc(-c3cc(C(=O)NCc4ccc(C(=O)O)cc4)nn3C)ccc2[nH]1` the inhibition was -21.1%.
For `CCOCCn1cc(C(=O)Nc2ccc(-n3nc(-c4cccnc4)cc3C(F)(F)F)cn2)ccc1=O`, the inhibition was -7.51%.
`O=C(Nc1cccnn1)N1CC(CC=Cc2cncc(Oc3ccc(C(F)(F)F)cn3)n2)C1` gave an inhibition of -1%.
The inhibition of `Nc1c(C(=O)NCc2ccc(C(=O)NCCCC3CCCCC3)cc2)cnn1-c1ccccc1` is reported as 13.5%.
The inhibition of `Cc1nc(N2CC[C@@H](O)C2)ncc1-c1cc(C(F)(F)F)cc2[nH]ncc12` is reported as 36.9%.
For `O=C(NC[C@@H]1[C@H]2CN(C(=O)OCc3cc(C(F)(F)F)cc(C(F)(F)F)c3)C[C@@H]12)c1ccc2[nH]nnc2c1`, the inhibition was 15.5%.
With `CNC(=O)c1ccc(Nc2ncc(C(F)(F)F)c(NCc3nccnc3N(C)S(C)(=O)=O)n2)cc1` the inhibition was 7.81%.
With `CS(=O)(=O)NCC[C@H](NC(=O)c1cncc2c1cnn2-c1ccc(F)cc1)c1ccnc(S(C)(=O)=O)c1` the inhibition was -24.5%.
`CC1=C(C#N)C(c2ccc3c(c2)c(NC(=O)c2ccccc2C)nn3C)C(C#N)=C(C)N1` gave an inhibition of 2.85%.
`C[C@H](NC(=O)c1cnc2n1[C@](C)(Cc1ccc(C#N)cc1)C(=O)N2c1cc(Cl)c(F)c(Cl)c1)C(=O)NC1(c2ccccn2)CC1` has an inhibition of -2.81%.
`COCc1nc2cnc3cc(-c4c(C)noc4C)c(OC[C@H]4CCNC4)cc3c2n1[C@H](C)c1ccccc1` gave an inhibition of 34.5%.

Mixed results — observed: enzyme activity; action: inhibitor; tested at: 0.5 µM; baseline: control
The remaining activity of `N/C(=N\[N+](=O)[O-])N/N=C\c1ccc(-c2cccc([N+](=O)[O-])c2)o1` is reported as 89.6% (Serine/threonine-protein kinase TAO1 (TAOK1, Homo sapiens, UniProt Q7L7X3)).
`COc1ccc2c(c[n+](C)c3c4cc5c(cc4ccc23)OCO5)c1OC` has a remaining activity of 98.1% (Mitogen-activated protein kinase kinase kinase 9 (MAP3K9, Homo sapiens, UniProt P80192)).

Repeated from above (series 3):
With `CCOC(=O)c1cc2cc(-c3cc(C(=O)NCc4ccc(C(=O)O)cc4)nn3C)ccc2[nH]1` the inhibition was -21.1%.
For `CCOCCn1cc(C(=O)Nc2ccc(-n3nc(-c4cccnc4)cc3C(F)(F)F)cn2)ccc1=O`, the inhibition was -7.51%.
`O=C(Nc1cccnn1)N1CC(CC=Cc2cncc(Oc3ccc(C(F)(F)F)cn3)n2)C1` gave an inhibition of -1%.
The inhibition of `Nc1c(C(=O)NCc2ccc(C(=O)NCCCC3CCCCC3)cc2)cnn1-c1ccccc1` is reported as 13.5%.
